Measured values of several laboratories.
Each line is one published result; not all experiments were run side by side. ± gives the spread as reported.
relA residues 53-446: relA, residues 53-446 (Mycobacterium tuberculosis, UniProt P9WHG9)
Chain of UniProt P9WHG9 (53-446, looked up): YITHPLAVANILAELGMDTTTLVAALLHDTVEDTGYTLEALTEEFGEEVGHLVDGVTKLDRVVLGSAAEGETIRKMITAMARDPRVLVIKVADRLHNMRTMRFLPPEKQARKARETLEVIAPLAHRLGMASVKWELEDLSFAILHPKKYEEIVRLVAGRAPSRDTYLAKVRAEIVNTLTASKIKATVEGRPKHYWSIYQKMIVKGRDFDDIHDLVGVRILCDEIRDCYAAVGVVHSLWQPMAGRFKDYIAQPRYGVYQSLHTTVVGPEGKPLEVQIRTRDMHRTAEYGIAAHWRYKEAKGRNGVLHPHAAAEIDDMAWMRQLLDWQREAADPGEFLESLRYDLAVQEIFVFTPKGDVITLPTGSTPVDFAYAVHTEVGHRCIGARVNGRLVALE
tmk: Thymidylate kinase (tmk, Mycobacterium tuberculosis, UniProt P9WKE1)
Chain of UniProt P9WKE1 (whole entry, looked up): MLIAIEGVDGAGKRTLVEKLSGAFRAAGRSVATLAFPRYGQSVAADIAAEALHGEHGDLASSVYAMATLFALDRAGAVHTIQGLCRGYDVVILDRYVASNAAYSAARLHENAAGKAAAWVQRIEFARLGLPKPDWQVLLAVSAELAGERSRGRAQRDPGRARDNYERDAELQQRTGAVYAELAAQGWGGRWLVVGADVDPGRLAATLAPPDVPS
Chain of UniProt P06493 (whole entry, looked up): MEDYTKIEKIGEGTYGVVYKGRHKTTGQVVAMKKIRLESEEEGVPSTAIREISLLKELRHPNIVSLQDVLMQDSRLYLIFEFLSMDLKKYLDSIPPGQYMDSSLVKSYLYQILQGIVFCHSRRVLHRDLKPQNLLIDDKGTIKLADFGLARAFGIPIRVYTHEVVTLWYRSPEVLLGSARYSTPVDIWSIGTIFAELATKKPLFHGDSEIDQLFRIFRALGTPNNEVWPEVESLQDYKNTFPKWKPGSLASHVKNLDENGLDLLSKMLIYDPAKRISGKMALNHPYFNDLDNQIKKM
Chain of UniProt P9WPC9 (whole entry, looked up): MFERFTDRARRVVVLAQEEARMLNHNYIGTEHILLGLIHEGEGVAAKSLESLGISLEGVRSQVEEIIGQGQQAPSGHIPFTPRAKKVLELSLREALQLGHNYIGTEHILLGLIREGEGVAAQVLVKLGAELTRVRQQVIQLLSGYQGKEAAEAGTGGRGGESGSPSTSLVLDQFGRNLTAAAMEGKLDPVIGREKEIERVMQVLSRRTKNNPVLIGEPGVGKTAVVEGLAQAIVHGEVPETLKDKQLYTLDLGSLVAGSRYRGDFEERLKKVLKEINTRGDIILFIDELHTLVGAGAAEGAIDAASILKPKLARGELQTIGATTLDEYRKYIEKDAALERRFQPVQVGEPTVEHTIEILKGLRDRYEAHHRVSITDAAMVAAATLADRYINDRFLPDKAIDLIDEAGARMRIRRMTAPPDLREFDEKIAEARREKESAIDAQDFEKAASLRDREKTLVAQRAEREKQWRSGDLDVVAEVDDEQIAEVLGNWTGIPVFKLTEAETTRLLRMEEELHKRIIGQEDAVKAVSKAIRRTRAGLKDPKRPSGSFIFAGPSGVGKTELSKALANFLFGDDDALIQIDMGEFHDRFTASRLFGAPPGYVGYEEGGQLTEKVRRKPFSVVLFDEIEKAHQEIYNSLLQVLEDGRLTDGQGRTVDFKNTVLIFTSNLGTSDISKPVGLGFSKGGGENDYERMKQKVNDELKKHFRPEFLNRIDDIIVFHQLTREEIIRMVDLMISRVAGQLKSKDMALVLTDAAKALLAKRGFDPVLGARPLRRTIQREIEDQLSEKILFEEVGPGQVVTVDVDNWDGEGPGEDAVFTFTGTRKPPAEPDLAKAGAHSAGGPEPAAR
Chain of UniProt P28565 (whole entry, looked up): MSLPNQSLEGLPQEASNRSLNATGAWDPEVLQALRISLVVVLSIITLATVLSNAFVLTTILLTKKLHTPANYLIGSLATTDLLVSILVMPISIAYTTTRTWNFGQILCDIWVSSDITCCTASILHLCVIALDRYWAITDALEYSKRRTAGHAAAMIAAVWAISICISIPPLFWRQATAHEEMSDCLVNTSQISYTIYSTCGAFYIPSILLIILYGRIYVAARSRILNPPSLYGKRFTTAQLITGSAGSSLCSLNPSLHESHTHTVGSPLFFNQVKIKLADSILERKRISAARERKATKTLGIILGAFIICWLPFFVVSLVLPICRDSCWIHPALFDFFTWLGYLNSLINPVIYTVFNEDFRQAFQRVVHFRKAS
Chain of UniProt P07711 (whole entry, looked up): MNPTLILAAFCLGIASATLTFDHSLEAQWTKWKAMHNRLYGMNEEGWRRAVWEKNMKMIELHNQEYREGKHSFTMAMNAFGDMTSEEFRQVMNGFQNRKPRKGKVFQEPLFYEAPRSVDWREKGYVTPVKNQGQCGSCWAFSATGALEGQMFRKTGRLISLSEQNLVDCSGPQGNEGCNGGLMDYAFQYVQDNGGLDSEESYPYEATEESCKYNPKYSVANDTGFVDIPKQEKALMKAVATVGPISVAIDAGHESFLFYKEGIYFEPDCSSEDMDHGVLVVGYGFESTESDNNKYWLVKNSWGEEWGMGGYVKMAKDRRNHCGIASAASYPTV
Chain of UniProt Q01959 (whole entry, unmodified, looked up): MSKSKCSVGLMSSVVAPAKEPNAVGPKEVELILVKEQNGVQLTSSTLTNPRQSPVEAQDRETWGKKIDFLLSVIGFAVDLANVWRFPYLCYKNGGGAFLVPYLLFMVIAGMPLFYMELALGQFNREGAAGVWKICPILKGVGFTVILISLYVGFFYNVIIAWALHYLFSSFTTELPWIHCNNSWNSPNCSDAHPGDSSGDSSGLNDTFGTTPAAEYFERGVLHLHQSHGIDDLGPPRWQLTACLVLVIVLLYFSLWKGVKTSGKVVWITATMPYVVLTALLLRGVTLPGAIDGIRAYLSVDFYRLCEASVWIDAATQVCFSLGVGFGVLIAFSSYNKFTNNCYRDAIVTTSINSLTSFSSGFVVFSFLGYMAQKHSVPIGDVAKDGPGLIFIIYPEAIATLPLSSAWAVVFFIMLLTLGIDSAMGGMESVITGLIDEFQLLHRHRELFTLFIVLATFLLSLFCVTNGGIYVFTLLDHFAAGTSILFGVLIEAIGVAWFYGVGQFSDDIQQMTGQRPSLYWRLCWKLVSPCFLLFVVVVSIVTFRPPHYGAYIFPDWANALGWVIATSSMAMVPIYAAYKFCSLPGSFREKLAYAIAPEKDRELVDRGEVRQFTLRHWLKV
Chain of UniProt Q12809 (whole entry, looked up): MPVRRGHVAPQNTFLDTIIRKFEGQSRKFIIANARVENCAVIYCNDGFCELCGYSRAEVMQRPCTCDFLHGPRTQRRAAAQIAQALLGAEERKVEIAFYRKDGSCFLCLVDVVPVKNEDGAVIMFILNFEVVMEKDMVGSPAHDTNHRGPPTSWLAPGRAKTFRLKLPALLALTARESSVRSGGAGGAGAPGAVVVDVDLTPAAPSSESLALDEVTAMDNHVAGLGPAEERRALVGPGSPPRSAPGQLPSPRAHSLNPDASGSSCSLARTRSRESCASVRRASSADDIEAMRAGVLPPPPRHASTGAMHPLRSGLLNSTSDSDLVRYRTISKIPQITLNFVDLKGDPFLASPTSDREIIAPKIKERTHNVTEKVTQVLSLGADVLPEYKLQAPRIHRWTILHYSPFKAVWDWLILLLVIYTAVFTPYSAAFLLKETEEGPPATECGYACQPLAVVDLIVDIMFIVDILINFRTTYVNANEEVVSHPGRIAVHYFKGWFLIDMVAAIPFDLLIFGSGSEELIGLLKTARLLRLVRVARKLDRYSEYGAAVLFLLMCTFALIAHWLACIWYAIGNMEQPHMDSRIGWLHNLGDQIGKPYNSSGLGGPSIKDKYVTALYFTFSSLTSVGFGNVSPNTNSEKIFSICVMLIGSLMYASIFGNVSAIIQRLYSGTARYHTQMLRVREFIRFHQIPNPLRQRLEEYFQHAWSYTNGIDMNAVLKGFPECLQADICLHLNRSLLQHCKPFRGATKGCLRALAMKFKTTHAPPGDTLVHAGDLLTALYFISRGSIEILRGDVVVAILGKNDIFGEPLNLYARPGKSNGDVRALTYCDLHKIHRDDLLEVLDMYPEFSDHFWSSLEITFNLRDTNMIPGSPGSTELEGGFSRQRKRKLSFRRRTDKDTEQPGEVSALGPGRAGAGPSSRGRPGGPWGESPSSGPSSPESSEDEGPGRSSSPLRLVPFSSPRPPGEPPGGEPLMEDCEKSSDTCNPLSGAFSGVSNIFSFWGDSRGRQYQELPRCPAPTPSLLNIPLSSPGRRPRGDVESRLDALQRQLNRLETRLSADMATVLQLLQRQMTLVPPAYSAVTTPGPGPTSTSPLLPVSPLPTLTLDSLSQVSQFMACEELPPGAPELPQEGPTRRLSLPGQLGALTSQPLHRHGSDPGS
Chain of UniProt P45985 (whole entry, looked up): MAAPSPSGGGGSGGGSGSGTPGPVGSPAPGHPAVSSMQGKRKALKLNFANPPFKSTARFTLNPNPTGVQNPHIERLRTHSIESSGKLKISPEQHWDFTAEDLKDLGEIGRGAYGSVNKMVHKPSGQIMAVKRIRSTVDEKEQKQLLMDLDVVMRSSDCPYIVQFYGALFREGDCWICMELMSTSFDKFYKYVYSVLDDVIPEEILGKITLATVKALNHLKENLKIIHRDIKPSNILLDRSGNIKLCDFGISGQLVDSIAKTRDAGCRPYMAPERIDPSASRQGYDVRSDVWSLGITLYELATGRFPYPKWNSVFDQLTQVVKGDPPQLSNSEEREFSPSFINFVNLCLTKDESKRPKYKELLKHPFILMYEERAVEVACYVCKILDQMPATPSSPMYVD

SMILES | tested on | assay | system | conditions | how to read | endpoint | value
COc1ccccc1-c1n[nH]c2nc(NC3CCN(C(=O)Cc4ccc(F)cc4F)CC3)ncc12 |  | bead binding, competition bead pull-down, refers to: LINJ.34.0870 | Leishmania donovani axenic amastigote extract | 10 µM | reference: vehicle | relative abundance | 0.93
N=C1C(=Cc2ccc(SCc3ccc(Cl)cc3)o2)C(=O)N=C2SC(c3cccs3)=NN12 | relA residues 53-446 | enzyme activity, inhibitor, fluorescence polarization |  |  |  | IC50 | 5.01 µM
CCCCCc1cc(O)c2c(c1)OC(C)(C)c1cc(O)c(C)cc1-2 | rat intestinal maltase | inhibitor | rat intestinal acetone powder | 10 min, 37 °C, together with: maltose 10 mM |  | IC50 | 100 ± 20 µM
O=C1NC2(CC2)COc2ncc(F)cc2[C@H]2COCCN2c2ccn3ncc1c3n2 |  |  | Sprague-Dawley rat, female, plasma | oral, 2.5 mg/kg/day, end of recovery, 4-week repeated-dose toxicity |  | prothrombin time | 8.1 ± 0.2 s
CCCc1cc(O)c2c(c1)OC(C)(C)C1=C2[C@@H](O)[C@@](C)(O)CC1 | rat intestinal maltase | inhibitor | rat intestinal acetone powder | 10 min, 37 °C, together with: maltose 10 mM |  | IC50 | 510 ± 70 µM
CCOC(=O)C1=C(C)NC(=S)NC1c1ccc([N+](=O)[O-])o1 (racemic) | tmk | enzyme activity, inhibitor, absorbance |  |  |  | IC50 | 0.579 µM
COCCOC(=O)N1CCC2(CCCN(Cc3ccc(Cl)c(Cl)c3)C2)C1 (stereo not drawn) | relA residues 53-446 | enzyme activity, inhibitor, fluorescence polarization |  |  |  | IC50 | 12.6 µM
CCOC(=O)C1=C(C)NC(=NN=C2C(=O)Nc3ccc(C)cc32)NC1c1ccc(F)cc1 (stereo not drawn) | tmk | enzyme activity, inhibitor, absorbance |  |  |  | IC50 | 0.104 µM
CN(C)[C@H]1C[C@@]23CC[C@@]4(O2)C(=CC[C@]2(C)[C@@H](c5ccc6ccncc6c5)CC[C@H]24)C=C3[C@@H](O)[C@@H]1O | Dual specificity mitogen-activated protein kinase kinase 4 (MAP2K4, Homo sapiens, UniProt P45985) | ATP probe labelling, inhibitor, KiNativ profiling |  | 0.1 µM |  | inhibition | 10.4%
CS(C)(=O)=Nc1ccc(-c2ccc(-c3nc4cc(O[C@@H]5CO[C@H]6[C@@H]5OC[C@H]6O)[nH]c4cc3F)cc2)cc1 | 5-hydroxytryptamine receptor 1D (Htr1d, Rattus norvegicus, UniProt P28565) | calcium signal, antagonist |  | 10 µM |  | inhibition | 3%
CC(C)CC(C(=O)N1CC2(CC1C#N)C(=O)Nc1ccccc12)N(C)C(=O)c1cc2c(F)cc(F)c(F)c2[nH]1 (stereo not drawn) | Procathepsin L (CTSL, Homo sapiens, UniProt P07711) | enzyme activity, inhibitor |  |  |  | IC50 | > 100 µM
CC(C)c1cc(N)c2cc(NC(=O)C(=O)Nc3ccc4nc(C(C)C)cc(N)c4c3)ccc2n1 | relA residues 53-446 | enzyme activity, inhibitor, fluorescence polarization |  |  |  | IC50 | 10 µM
CCCCCc1cc(O)c2c(c1)OC(C)(C)[C@@H]1CCC(C)=C[C@@H]21 | rat intestinal maltase | inhibitor | rat intestinal acetone powder | 10 min, 37 °C, together with: maltose 10 mM |  | IC50 | 360 ± 60 µM
O=C1NC(=O)c2c1c1cc(F)c[n+]3c1c1c2c2cc(O)ccc2[n]1[Ru-4]312([N]=C=S)[S+]3CC[S+]1CC[S+]2CC3 (stereo not drawn) | Cyclin-dependent kinase 1, with cyclin B (CDK1, Homo sapiens, UniProt P06493) | enzyme activity |  | 100 nM, human enzyme, together with: 10 µM ATP | reference: untreated | remaining activity | 97%
CC1=CC(C=C(Cl)c2ccc(C(=O)O)cc2)C2(C(=O)O)C=CC(CCOC(=O)c3ccc(Oc4ccccc4)cc3)CC2C1 (stereo not drawn) | ATP-dependent Clp protease ATP-binding subunit ClpC1 (clpC1, Mycobacterium tuberculosis, UniProt P9WPC9) | enzyme activity, inhibitor |  |  |  | IC50 | 5.9 µM
COc1cc2c(cc1NC(=O)c1cncn1C)C[C@H]1[C@H]3CCCC[C@@]23CCN1C | Voltage-gated inwardly rectifying potassium channel KCNH2 (KCNH2, Homo sapiens, UniProt Q12809) | radioligand binding, inhibitor |  |  |  | IC50 | > 30 µM
Cc1cc(/C=C/c2ccc(C(=O)O)cc2)ccc1OCCc1scnc1C | relA residues 53-446 | enzyme activity, inhibitor, fluorescence polarization |  |  |  | IC50 | 15.8 µM
CCC[C@H](C(=O)c1ccccc1)N1CCCC1 | Sodium-dependent dopamine transporter (SLC6A3, Homo sapiens, UniProt Q01959, V152I) | transporter uptake, inhibitor, radiometric |  |  |  | Ki | 0.295 µM

For quick reference, copied from above:
SMILES | tested on | assay | system | conditions | how to read | endpoint | value
COc1cc2c(cc1NC(=O)c1cncn1C)C[C@H]1[C@H]3CCCC[C@@]23CCN1C | Voltage-gated inwardly rectifying potassium channel KCNH2 (KCNH2, Homo sapiens, UniProt Q12809) | radioligand binding, inhibitor |  |  |  | IC50 | > 30 µM
Cc1cc(/C=C/c2ccc(C(=O)O)cc2)ccc1OCCc1scnc1C | relA residues 53-446 | enzyme activity, inhibitor, fluorescence polarization |  |  |  | IC50 | 15.8 µM
